Published values pooled from the literature.
Compare with care: the assays were run in different laboratories. Numbers after ± are the reported error.

SMILES = Cc1cc(-c2nccc3c2ccn3CC(=O)Nc2ccc(-c3cnccn3)cn2)ccn1; test system = human; conditions = MAD part, 15 mg once daily; endpoint = subjects with skin abrasion TEAEs; value = 0%
SMILES = CCc1nc(C(N)=O)c(Nc2ccc(N3CCC(N4CCN(C)CC4)CC3)c(OC)c2)nc1NC1CCOCC1; test system = Japanese patients, plasma; conditions = oral, 40 mg, cycle 1 day 28, multiple doses, median; endpoint = AUCtau; value = 3090 ng·h/mL
SMILES = CO[C@H]1C[C@@H]2CC[C@@H](C)[C@@](O)(O2)C(=O)C(=O)N2CCCC[C@H]2C(=O)O[C@H]([C@H](C)C[C@@H]2CC[C@@H](OC(=O)NCCOCCOCCOCCOCCOCCOCCOCCOCCC(=O)N3CCc4cc(Cn5nc(-c6ccc7oc(N)nc7c6)c6c(N)ncnc65)ccc4C3)[C@H](OC)C2)C[C@@H](O)[C@H](C)/C=C(\C)[C@@H](O)[C@@H](OC)C(=O)[C@H](C)C[C@H](C)/C=C/C=C/C=C/1C; test system = human, plasma; conditions = intravenous, 12 mg, cycle 1 day 15, arithmetic mean; endpoint = Cmax; value = 752 ng/mL
SMILES = COc1cc(/C=C/C(=O)OC2C(O)CC(O)(C(=O)O)CC2O)ccc1O (stereo not shown); test system = human plasma; conditions = median; endpoint = plasma concentration; value = 10.2 nM
SMILES = CC(C)(C(=O)N1CCOc2c(C#N)cncc2C1)C(F)F; assay = measured: ALT increased; test system = human; conditions = oral, 10 mg, CSF pharmacokinetic cohort; endpoint = subjects with adverse event; value = 16.7%
SMILES = CC(C)NCCCC[C@@H]1NC(=O)[C@H](Cc2ccc(O)cc2)NC(=O)[C@H](Cc2ccccc2)NC(=O)CC[C@H](C(=O)N[C@@H](CCCCNC(C)C)C(=O)N[C@@H](CCCCNC(=O)[C@H](CCC(=O)O)NC(=O)[C@H](CCC(=O)O)NC(=O)[C@H](CCC(=O)O)NC(=O)CN2CCN(CC(=O)O)CCN(CC(=O)O)CCN(CC(=O)O)CC2)C(N)=O)NC(=O)CNC(=O)[C@H](Cc2ccc3ccccc3c2)NC(=O)[C@@H](CCCNC(=N)N)NC1=O [gallium-68 labelled]; test system = mouse with PC-3 xenograft, pancreas; conditions = intravenous, 1 h; endpoint = tissue uptake; value = 0.13 %ID/g
SMILES = CCN1/C(=C/C(C)=O)Sc2ccc(F)cc21; test system = cynomolgus monkey; conditions = oral, 10 mg/kg, 4 h post-dose; endpoint = mean blood pressure; value = 94 ± 5 mmHg
SMILES = OC[C@H]1O[C@@H](c2ccc(F)c(Cc3cc4ccccc4s3)c2)[C@H](O)[C@@H](O)[C@@H]1O; test system = Japanese patients, type 1 diabetes; conditions = oral, 100 mg/day, onset day 6; how to read = relative to: patients; endpoint = hypoglycaemia-related adverse event; value = 3%
SMILES = Cc1ccc([C@@H]2O[C@H](CO)[C@@H](O)[C@H](O)[C@H]2O)cc1Cc1ccc(-c2ccc(F)cc2)s1; test system = Japanese type 2 diabetes patients; conditions = 100 mg, day 1, 24 h urine collection; how to read = relative to: baseline; endpoint = urinary calcium excretion change; value = -23.2 mg
SMILES = C[C@H]1CN(C(=O)CC#N)[C@]12CCN(c1ncnc3[nH]ccc13)C2; test system = healthy Japanese males; conditions = oral, 1 mg single dose, mean; endpoint = AUC(0-last); value = 29 ng·h/mL
SMILES = C=CCN1CC(=O)N2[C@@H](Cc3ccc(O)cc3F)C(=O)N(Cc3cccc(N4CC(N5CCN(CC)CC5)C4)n3)C[C@@H]2N1C(=O)NCc1ccccc1; test system = advanced solid tumour patients; conditions = oral, 20 mg twice daily, grade ≥3, dose-escalation; endpoint = treatment-related ALT increased; value = 0%
SMILES = CC(=O)O[C@H]1C[C@@]2(C)[C@@H](C[C@@H](O)[C@H]3[C@@]4(C)CC[C@@H](O)[C@@H](C)[C@@H]4CC[C@@]32C)/C1=C(\CCC=C(C)C)C(=O)O; assay = starch gel membrane permeability; test system = Gram-negative envelope surrogate; conditions = 200 µM, 20 min, pH 7.4; endpoint = amount permeated; value = 0.09 nmol
SMILES = O=C(O)C=Cc1ccc(OS(=O)(=O)O)c(O)c1; test system = human plasma; conditions = mean; endpoint = plasma concentration; value = 114 nM
SMILES = NC1(C(=O)N[C@@H](CCO)c2ccc(Cl)cc2)CCN(c2nc[nH]c3nccc2-3)CC1; test system = metastatic CRPC patients; conditions = 480 mg b.i.d., grade 3 to 4, treatment-related, together with: enzalutamide 160 mg daily; endpoint = incidence of Vomiting; value = 0%
SMILES = Cn1cc(Nc2nccc(-c3ccc4c(c3)CN(C3COC3)CC[C@H]4NC(=O)c3cn(C(C)(C)C)nn3)n2)cn1; assay = measured: transitional B cells; test system = human, clinical trial, whole blood; conditions = 50 mg twice daily, follow-up; endpoint = percent change from baseline; value = -17.1%
SMILES = COc1c(C)c2c(c(O[C@@H]3O[C@H](C(=O)O)[C@@H](O)[C@H](O)[C@H]3O)c1C/C=C(\C)CCC(=O)O)C(=O)OC2; test system = healthy subjects, plasma; conditions = oral, 1 g mycophenolate mofetil; endpoint = Cmax, mean; value = 46.9 ng/mL
SMILES = C[C@@H](N)c1cc(Cl)ccc1Cn1c(=S)[nH]c(=O)c2[nH]ccc21; test system = human; conditions = oral, 2.5 mg single dose; endpoint = drug-related adverse events; value = 0%
SMILES = O=C(O)C[C@H](O)C[C@H](O)/C=C/c1c(C2CC2)nc2ccccc2c1-c1ccc(F)cc1; tested on = COS-7; conditions = 3 µM, 24 h, 0.1% DMSO, unit not given; how to read = relative to: vehicle control; endpoint = confluence; value = 0.91 ± 0.07
SMILES = COc1ccc(CCC(=O)O)cc1OS(=O)(=O)O; test system = human plasma; conditions = mean; endpoint = plasma concentration; value = 381 nM
SMILES = Cc1cc(C)c(CNC(=O)c2cc(Cl)c3c(c2C)O[C@@](C)([C@H]2CC[C@H](N(C)C)CC2)O3)c(=O)[nH]1; test system = human relapsed/refractory NHL; conditions = oral, 200 mg once daily, onset day 1 to 14; endpoint = GGT increased grade ≥3; value = 0%
SMILES = COc1cc2c(c(O)c1OC)C(=O)c1c(cc(C)c(O[C@@H]3O[C@H](CO)[C@@H](O)[C@H](O)[C@H]3O)c1OC)C2=O; tested on = HepaRG co-cultured with HK-2; assay = MTT; conditions = 133.33 µM, 24 h; how to read = relative to: untreated control; endpoint = cell viability; value = 60.2 ± 9%
SMILES = Cc1onc(-c2ccccc2)c1-c1ccc(S(N)(=O)=O)cc1; tested on = COS-7; conditions = 100 µM, 24 h, 0.1% DMSO, unit not given; how to read = relative to: control; endpoint = confluence; value = 0.75 ± 0.05

Repeated from above:
SMILES = CC(C)(C(=O)N1CCOc2c(C#N)cncc2C1)C(F)F; assay = measured: ALT increased; test system = human; conditions = oral, 10 mg, CSF pharmacokinetic cohort; endpoint = subjects with adverse event; value = 16.7%
SMILES = C[C@H]1CN(C(=O)CC#N)[C@]12CCN(c1ncnc3[nH]ccc13)C2; test system = healthy Japanese males; conditions = oral, 1 mg single dose, mean; endpoint = AUC(0-last); value = 29 ng·h/mL
SMILES = Cc1ccc([C@@H]2O[C@H](CO)[C@@H](O)[C@H](O)[C@H]2O)cc1Cc1ccc(-c2ccc(F)cc2)s1; test system = Japanese type 2 diabetes patients; conditions = 100 mg, day 1, 24 h urine collection; how to read = relative to: baseline; endpoint = urinary calcium excretion change; value = -23.2 mg
